Published values pooled from the literature.
Every numbered part comes from another study and shows a few of its results, in no order. “And” joins repeats or separate records; there may be more than shown.
UniProt P15056, sequence (whole entry, unmodified, looked up): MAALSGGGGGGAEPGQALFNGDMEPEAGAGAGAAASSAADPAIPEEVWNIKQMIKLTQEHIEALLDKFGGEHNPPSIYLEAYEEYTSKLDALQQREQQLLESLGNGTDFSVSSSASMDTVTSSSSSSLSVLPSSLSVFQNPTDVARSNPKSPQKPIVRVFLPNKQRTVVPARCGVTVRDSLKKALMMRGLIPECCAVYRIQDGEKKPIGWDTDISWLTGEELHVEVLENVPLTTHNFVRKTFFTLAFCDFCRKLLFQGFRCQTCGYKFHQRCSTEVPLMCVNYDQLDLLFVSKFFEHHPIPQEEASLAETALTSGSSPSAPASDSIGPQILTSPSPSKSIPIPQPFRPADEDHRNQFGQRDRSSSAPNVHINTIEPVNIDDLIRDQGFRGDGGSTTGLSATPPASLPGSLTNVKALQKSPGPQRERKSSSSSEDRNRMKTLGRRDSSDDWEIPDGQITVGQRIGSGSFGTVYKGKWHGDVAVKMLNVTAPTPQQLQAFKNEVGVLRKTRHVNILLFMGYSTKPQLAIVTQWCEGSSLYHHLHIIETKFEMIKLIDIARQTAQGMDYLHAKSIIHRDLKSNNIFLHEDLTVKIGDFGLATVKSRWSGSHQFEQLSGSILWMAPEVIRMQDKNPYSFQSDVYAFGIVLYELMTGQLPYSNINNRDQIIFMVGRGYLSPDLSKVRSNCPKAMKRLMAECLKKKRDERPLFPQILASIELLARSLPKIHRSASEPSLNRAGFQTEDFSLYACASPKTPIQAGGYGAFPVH
UniProt Q8TD19, sequence (whole entry, looked up): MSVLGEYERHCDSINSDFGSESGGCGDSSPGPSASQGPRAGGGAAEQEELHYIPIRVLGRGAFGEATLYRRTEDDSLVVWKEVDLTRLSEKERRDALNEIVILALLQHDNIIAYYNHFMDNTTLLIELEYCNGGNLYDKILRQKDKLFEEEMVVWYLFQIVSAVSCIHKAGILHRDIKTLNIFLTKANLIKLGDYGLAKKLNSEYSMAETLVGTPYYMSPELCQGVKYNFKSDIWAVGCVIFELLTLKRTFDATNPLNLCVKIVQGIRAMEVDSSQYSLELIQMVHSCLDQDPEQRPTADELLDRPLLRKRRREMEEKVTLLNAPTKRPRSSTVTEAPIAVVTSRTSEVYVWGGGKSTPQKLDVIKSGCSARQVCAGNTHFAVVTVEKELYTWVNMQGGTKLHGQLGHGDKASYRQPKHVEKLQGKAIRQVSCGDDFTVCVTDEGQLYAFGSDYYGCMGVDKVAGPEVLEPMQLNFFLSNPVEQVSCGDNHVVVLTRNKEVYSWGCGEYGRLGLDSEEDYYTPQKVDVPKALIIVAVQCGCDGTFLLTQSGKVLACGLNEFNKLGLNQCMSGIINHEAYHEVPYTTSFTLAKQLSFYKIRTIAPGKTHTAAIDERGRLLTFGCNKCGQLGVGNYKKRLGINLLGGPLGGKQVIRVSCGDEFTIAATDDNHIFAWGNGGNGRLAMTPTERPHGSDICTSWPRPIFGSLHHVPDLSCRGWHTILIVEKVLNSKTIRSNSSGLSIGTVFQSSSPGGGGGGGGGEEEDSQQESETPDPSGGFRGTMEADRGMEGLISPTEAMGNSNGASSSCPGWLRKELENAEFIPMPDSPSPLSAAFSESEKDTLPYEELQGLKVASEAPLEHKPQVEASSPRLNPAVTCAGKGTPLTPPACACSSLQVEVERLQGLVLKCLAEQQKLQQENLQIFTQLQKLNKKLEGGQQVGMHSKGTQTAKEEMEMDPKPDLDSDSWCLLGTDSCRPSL
UniProt P00540, sequence (whole entry, looked up): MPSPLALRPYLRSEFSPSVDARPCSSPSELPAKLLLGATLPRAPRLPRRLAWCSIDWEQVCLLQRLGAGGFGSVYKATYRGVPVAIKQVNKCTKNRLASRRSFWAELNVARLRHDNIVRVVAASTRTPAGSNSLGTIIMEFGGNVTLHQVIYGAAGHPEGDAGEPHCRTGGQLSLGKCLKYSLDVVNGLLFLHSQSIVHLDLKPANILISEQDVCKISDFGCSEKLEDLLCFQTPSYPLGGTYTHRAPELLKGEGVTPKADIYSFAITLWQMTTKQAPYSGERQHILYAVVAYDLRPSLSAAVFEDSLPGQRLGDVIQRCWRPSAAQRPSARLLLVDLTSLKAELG

Series 1 — concentration: 1 µM; reference: DMSO; quantity: viability
SMILES: CC(=O)NCC(=O)N1[C@@H]2CC[C@H]1c1ccc(Nc3ncc(C(F)(F)F)c(NC4CCC4)n3)cc12
normal adjacent epithelium organoid sample H; CellTiter-Glo: 14.8%
normal adjacent epithelium organoid sample F; CellTiter-Glo: 8.3%
normal adjacent epithelium organoid sample G; CellTiter-Glo: 11.6%
normal adjacent epithelium organoid sample D; CellTiter-Glo: 16.3%
colorectal tumour organoids: 34.8%
normal adjacent epithelium organoid sample E; CellTiter-Glo: 26.2%

Series 2 — effect on: enzyme activity; mode: inhibitor; concentration: 0.5 µM; reference: control; quantity: remaining activity
Target: MAP kinase-activated protein kinase 2 (MAPKAPK2, Homo sapiens, UniProt P49137)
UniProt P49137, sequence (whole entry, looked up): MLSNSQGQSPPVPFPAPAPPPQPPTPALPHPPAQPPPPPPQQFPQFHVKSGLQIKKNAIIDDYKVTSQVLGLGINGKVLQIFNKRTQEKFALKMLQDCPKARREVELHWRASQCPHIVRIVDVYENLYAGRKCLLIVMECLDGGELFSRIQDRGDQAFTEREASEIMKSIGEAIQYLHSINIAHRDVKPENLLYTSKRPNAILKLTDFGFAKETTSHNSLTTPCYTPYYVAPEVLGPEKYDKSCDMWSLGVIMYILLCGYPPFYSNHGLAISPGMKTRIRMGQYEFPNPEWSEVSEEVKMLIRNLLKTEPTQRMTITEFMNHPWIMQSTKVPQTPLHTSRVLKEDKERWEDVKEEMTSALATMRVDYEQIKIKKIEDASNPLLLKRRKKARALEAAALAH
Nc1[nH]nc2nc3ccccc3nc12: 105%
OCC(O)CCON=C1C(c2c(O)[nH]c3ccccc23)=Nc2ccccc21 (stereo not shown): 98.4%
O=c1c2ccccc2[nH]c(=S)n1CCN1CCC(=C(c2ccc(F)cc2)c2ccc(F)cc2)CC1: 106%
COc1cc2ncnc(Nc3ccc(F)c(Cl)c3)c2cc1OCCCN1CCOCC1: 97.5%
COc1ccc(C(=O)Nc2sc3c(c2C(N)=O)CCCC3)cc1OC: 104%
O=C(CCCc1ccc(-c2ccccc2F)cc1)Nc1ccc(O)cc1: 103%
Cc1ccc(Nc2nccc(N(C)c3ccc4c(C)n(C)nc4c3)n2)cc1S(N)(=O)=O: 99.6%
Cc1nc(-c2ccccc2)c(-c2ccncc2)o1: 102%
O=C(O)c1ccc2c3c1cccc3c(=O)n1c3ccccc3nc21: 102%
Cn1sc(=O)n(Cc2ccccc2)c1=O: 102%
Nc1ncnc2n[nH]c(Nc3ccc(F)cc3)c12: 105%
COc1ccc(CNC(=O)Nc2ncc([N+](=O)[O-])s2)cc1: 112%
Cn1c2ccccc2c2c3c(c4c5ccccc5n(CCC#N)c4c21)CNC3=O: 109%
CN(C)c1ccc(C=C2C(=O)Nc3ccccc32)cc1: 106%
N#CC(C#N)=C(N)/C(C#N)=C/c1ccc(O)cc1: 91.3%

Series 3 — effect on: enzyme activity; mode: inhibitor; concentration: 77 µM; reference: untreated; quantity: remaining activity
Target: DNA polymerase theta, ATPase domain (POLQ, Homo sapiens, UniProt O75417)
UniProt O75417, sequence (whole entry, unmodified, looked up): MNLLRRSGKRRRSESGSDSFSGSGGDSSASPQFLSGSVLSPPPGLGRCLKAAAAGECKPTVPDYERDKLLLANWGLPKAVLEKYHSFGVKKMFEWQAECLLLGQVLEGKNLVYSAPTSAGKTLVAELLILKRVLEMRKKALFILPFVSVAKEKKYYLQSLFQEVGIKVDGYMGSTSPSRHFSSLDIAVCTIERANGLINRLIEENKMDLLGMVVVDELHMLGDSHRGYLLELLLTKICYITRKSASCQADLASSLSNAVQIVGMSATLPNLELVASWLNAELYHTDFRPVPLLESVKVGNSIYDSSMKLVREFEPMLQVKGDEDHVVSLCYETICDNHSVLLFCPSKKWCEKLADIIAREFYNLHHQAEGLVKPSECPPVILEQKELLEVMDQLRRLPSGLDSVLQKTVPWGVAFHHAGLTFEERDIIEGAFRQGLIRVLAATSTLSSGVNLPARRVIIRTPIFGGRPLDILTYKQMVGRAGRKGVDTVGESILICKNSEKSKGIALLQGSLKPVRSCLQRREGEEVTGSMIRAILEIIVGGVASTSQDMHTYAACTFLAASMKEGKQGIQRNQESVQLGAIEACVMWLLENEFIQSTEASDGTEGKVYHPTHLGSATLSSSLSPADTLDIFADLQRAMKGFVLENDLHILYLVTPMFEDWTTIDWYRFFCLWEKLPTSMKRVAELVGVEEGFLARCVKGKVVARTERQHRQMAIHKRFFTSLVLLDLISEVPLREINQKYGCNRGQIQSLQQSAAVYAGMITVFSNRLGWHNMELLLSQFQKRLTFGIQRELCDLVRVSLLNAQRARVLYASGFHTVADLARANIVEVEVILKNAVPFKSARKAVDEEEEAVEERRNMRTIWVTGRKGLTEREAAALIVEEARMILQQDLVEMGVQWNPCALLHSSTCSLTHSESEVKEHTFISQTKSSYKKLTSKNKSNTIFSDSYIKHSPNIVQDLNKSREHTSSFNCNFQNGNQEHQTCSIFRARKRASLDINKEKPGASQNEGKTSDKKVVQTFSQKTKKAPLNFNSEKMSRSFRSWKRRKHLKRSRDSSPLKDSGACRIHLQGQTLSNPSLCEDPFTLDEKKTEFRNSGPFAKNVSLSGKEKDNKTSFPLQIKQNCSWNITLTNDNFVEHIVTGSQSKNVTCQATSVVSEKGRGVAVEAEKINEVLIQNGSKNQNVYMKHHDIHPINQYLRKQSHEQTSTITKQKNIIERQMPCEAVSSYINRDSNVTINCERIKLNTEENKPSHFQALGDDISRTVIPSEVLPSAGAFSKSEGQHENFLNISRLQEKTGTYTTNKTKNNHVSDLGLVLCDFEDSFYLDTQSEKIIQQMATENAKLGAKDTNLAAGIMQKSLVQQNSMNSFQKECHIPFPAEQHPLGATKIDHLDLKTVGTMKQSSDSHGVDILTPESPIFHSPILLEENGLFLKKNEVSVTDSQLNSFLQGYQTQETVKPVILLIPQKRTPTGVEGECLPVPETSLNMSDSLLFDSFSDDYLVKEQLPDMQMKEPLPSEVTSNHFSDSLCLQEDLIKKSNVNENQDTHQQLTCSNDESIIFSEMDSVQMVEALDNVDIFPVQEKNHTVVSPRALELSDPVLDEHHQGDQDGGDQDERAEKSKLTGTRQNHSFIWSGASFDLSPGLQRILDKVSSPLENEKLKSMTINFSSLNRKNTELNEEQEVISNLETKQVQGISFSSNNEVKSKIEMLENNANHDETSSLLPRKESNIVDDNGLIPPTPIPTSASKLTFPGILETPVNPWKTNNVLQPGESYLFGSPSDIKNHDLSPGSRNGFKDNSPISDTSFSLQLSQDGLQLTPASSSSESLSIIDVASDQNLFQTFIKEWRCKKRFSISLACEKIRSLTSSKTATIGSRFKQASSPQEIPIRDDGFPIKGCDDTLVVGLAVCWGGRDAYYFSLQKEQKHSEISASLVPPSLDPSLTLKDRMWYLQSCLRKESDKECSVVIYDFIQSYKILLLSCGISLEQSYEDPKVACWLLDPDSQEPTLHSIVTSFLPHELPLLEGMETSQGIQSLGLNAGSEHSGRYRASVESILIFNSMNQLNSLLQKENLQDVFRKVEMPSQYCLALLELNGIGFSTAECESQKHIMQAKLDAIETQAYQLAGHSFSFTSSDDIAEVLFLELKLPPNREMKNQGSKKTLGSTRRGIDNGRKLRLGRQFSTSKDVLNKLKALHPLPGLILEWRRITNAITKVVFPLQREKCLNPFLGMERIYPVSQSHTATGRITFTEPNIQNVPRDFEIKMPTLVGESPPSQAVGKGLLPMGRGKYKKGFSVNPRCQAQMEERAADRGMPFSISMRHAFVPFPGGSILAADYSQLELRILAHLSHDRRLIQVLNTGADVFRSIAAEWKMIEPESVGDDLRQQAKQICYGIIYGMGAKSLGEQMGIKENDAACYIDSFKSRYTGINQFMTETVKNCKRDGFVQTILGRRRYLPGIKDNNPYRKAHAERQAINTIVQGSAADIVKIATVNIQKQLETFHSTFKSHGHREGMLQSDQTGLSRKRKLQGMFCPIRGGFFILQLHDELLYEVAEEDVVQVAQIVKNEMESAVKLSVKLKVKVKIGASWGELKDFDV
NCCCCNCCCN: 98.9%
CC(=O)Nc1ccc(O)cc1: 102%
CSc1nc2cc(Cl)c(Oc3cccc(Cl)c3Cl)cc2[nH]1: 96.2%
N#Cc1c(O)c2c(-c3ccc(-c4ccccc4O)cc3)csc2[nH]c1=O: 64.5%
Nc1ncnc2c1nc(Br)n2[C@@H]1O[C@@H]2COP(=O)(O)O[C@H]2[C@H]1O: 101%
Nc1c2c(nc3ccccc13)CCCC2O (stereo not shown): 102%
NCCCCCC(=O)O: 91.7% and 97%
CC(=O)N[C@@H](CC(C)C)C(=O)O: 112%

Series 4 — mode: inhibitor; concentration: 5 µM; quantity: log2 fold change
SMILES: O=C1NC(=O)C(c2cn(-c3ccccc3)nc2-c2ccc(F)cc2)N1 (stereo not shown)
NEK9 (Homo sapiens, UniProt Q8TD19); kinase-CDC37 interaction; human cells; reference: vehicle: -0.1
CAMK2B (Homo sapiens, UniProt Q13554); cell-based kinome profiling; human cells; reference: vehicle control: -0.164
ULK3 (Homo sapiens, UniProt Q6PHR2); kinase activity; cell-based kinome screen; reference: vehicle: 0.103
BRAF (Homo sapiens, UniProt P15056, E586K); cell-based kinome profiling; human cells; reference: vehicle control: -0.142
BRAF (Homo sapiens, UniProt P15056, V600E); cell-based kinome profiling; human cells; reference: vehicle control: -0.088
FLT3 ITD human; kinase-CDC37 interaction; human cells; reference: vehicle: 0.002
Cyclin-dependent kinase 7, with CDC37 (CDK7, Homo sapiens, UniProt P50613); human cells; reference: vehicle: 0.173
Proto-oncogene serine/threonine-protein kinase mos (MOS, Homo sapiens, UniProt P00540); kinase-CDC37 interaction; human cells; reference: vehicle: -0.3

Repeated from above (series 2):
Cc1ccc(Nc2nccc(N(C)c3ccc4c(C)n(C)nc4c3)n2)cc1S(N)(=O)=O: 99.6%
Nc1[nH]nc2nc3ccccc3nc12: 105%
COc1ccc(CNC(=O)Nc2ncc([N+](=O)[O-])s2)cc1: 112%
Cc1nc(-c2ccccc2)c(-c2ccncc2)o1: 102%
